Published values gathered from unrelated publications.
Cell line: human red blood cells

Compound = CC[C@H](C)[C@H](NC(=O)[C@H](CCCNC(=N)N)NC(=O)[C@@H]1CCCN1C(=O)[C@H](CCCNC(=N)N)NC(=O)[C@@H](N)CCCNC(=N)N)C(=O)N[C@@H](Cc1c[nH]cn1)C(=O)N[C@@H](Cc1ccccc1)C(=O)N[C@@H](CCCNC(=N)N)C(=O)N[C@@H](Cc1ccccc1)C(=O)N1CCC[C@H]1C(=O)N[C@@H](CC(N)=O)C(=O)N[C@@H](CCCNC(=N)N)C(=O)N1CCC[C@H]1C(=O)N[C@@H](Cc1ccccc1)C(=O)N[C@H](C(=O)N1CCC[C@H]1C(=O)N[C@@H](CO)C(=O)N[C@@H](CCCNC(=N)N)C(=O)N[C@@H](CS)C(=O)N[C@@H](CC(N)=O)C(=O)N[C@@H](Cc1c[nH]cn1)C(=O)N[C@@H](CCCNC(=N)N)C(=O)N[C@@H](Cc1ccccc1)C(=O)N1CCC[C@H]1C(=O)N[C@@H](Cc1ccccc1)C(=O)N[C@@H](CCC(N)=O)C(=O)N1CCC[C@H]1C(=O)N[C@@H](Cc1ccccc1)C(=O)N[C@@H](Cc1ccc(O)cc1)C(=O)N[C@@H](Cc1c[nH]c2ccccc12)C(=O)N1CCC[C@H]1C(=O)N[C@@H](Cc1c[nH]cn1)C(=O)N[C@@H](CCCNC(=N)N)C(=O)N[C@@H](Cc1ccc(O)cc1)C(=O)N[C@@H](CC(C)C)C(=O)N[C@H](C(=O)N[C@@H](Cc1ccc(O)cc1)C(=O)N[C@@H](CCCNC(=N)N)C(=O)N[C@@H](Cc1ccc(O)cc1)C(=O)N[C@@H](Cc1ccccc1)C(=O)N1CCC[C@H]1C(=O)N[C@@H](CCCNC(=N)N)C(=O)N[C@@H](CCCNC(=N)N)C(=O)N[C@@H](CCCNC(=N)N)C(=O)N[C@@H](CC(C)C)C(=O)N[C@@H](CCC(N)=O)C(=O)N[C@@H](CCCNC(=N)N)C(=O)O)[C@@H](C)O)C(C)C; assay = hemolysis; quantity = HC50; result = 4.14 µmol/L
Compound = CC(C)C[C@H](N)C(=O)N[C@@H](Cc1c[nH]c2ccccc12)C(=O)N[C@@H](Cc1c[nH]c2ccccc12)C(=O)N[C@@H](CCCNC(=N)N)C(=O)N[C@@H](Cc1c[nH]c2ccccc12)C(=O)N[C@@H](Cc1c[nH]c2ccccc12)C(=O)N[C@@H](CCCNC(=N)N)C(=O)N[C@@H](Cc1c[nH]c2ccccc12)C(=O)N[C@@H](CCCNC(=N)N)C(=O)O; conditions = 1 h, 37 °C, 10% hemolysis; quantity = lowest hemolytic concentration; result = > 256 µg/mL
Compound = CC[C@H](C)[C@H](NC(=O)[C@H](CC(C)C)NC(=O)[C@@H](NC(=O)[C@H](CCCCN)NC(=O)[C@H](CCCNC(=N)N)NC(=O)[C@H](CCCCN)NC(=O)[C@H](CC(C)C)NC(=O)[C@H](Cc1ccc(O)cc1)NC(=O)[C@@H](NC(=O)[C@@H](NC(=O)[C@H](Cc1ccccc1)NC(=O)CN)C(C)C)C(C)C)[C@@H](C)O)C(=O)N[C@@H](CCCNC(=N)N)C(=O)N[C@@H](CC(C)C)C(=O)N[C@@H](CC(C)C)C(=O)N[C@@H](Cc1ccccc1)C(=O)N[C@H](C(=O)N[C@@H](CC(N)=O)C(=O)N[C@@H](CCCCN)C(=O)N[C@@H](CCCCN)C(=O)N[C@H](C(=O)N[C@H](C(=O)N[C@H](C(=O)N[C@@H](CCC(=O)O)C(=O)N[C@@H](CCCCN)C(=O)N[C@@H](CC(C)C)C(=O)N[C@@H](CCCNC(=N)N)C(=O)N[C@@H](CS)C(=O)N[C@H](C(=O)N[C@@H](CCCNC(=N)N)C(=O)N1CCC[C@H]1C(=O)N[C@@H](CO)C(=O)N[C@@H](CCCNC(=N)N)C(=O)N1CCC[C@H]1C(=O)N1CCC[C@H]1C(=O)N[C@@H](CCCNC(=N)N)C(=O)NCC(=O)N[C@@H](Cc1ccccc1)C(=O)O)C(C)C)[C@@H](C)CC)[C@@H](C)O)[C@@H](C)O)[C@@H](C)O; assay = hemolysis; quantity = HC50; result = 72.1 µmol/L
Compound = CC(=O)N[C@@H](CCCCN)C(=O)N[C@@H](CCCCN)C(=O)N[C@@H](CC(C)C)C(=O)N[C@@H](CC(C)C)C(=O)N[C@@H](CCCCN)C(=O)N[C@@H](CC(C)C)C(=O)N[C@@H](CC(C)C)C(=O)N[C@@H](CCCCN)C(=O)N[C@@H](CCCCN)C(=O)N1CCC[C@H]1C(=O)N[C@@H](C)C(=O)N[C@@H](CCCCN)C(=O)N[C@@H](CC(C)C)C(=O)N[C@@H](CC(C)C)C(=O)N[C@@H](CCCCN)C(N)=O; assay = haemolysis; conditions = 6 h, 37 °C, 5% haematocrit in PBS; quantity = MHC10; result = > 160 µM
Compound = CC(C)C[C@H](NC(=O)CNC(=O)[C@H](CCCCN)NC(=O)[C@H](CC(C)C)NC(=O)[C@H](CC(C)C)NC(=O)[C@H](CC(C)C)NC(=O)[C@H](CCCCN)NC(=O)CNC(=O)[C@H](CC(C)C)NC(=O)[C@H](CC(C)C)NC(=O)[C@@H](N)CCCCN)C(=O)N[C@@H](CC(C)C)C(=O)N[C@@H](CCCCN)C(=O)O; conditions = 1 h, 37 °C, 10% hemolysis; quantity = lowest hemolytic concentration; result = > 256 µg/mL
Compound = CCCCCCCC(=O)N[C@@H](CCCCN)C(=O)N[C@@H](CCCCN)C(=O)N[C@@H](C)C(=O)N[C@@H](CC(C)C)C(=O)N[C@@H](CCCCN)C(=O)N[C@@H](CC(C)C)C(=O)N[C@@H](C)C(=O)N[C@@H](CCCCN)C(=O)N[C@@H](CCCCN)C(=O)N1CCC[C@H]1C(=O)N[C@@H](CC(C)C)C(=O)N[C@@H](CCCCN)C(=O)N[C@@H](CC(C)C)C(=O)N[C@@H](CC(C)C)C(=O)N[C@@H](CCCCN)C(N)=O; assay = haemolysis; conditions = 6 h, 37 °C, 5% haematocrit in PBS; quantity = MHC10; result = > 160 µM
Compound = CC[C@H](C)[C@H](N)C(=O)N1CCC[C@H]1C(=O)N[C@@H](CC(C)C)C(=O)N[C@@H](Cc1ccccc1)C(=O)N[C@@H](CCCNC(=N)N)C(=O)N[C@@H](CCCNC(=N)N)C(=O)N[C@@H](Cc1ccccc1)C(=O)NCC(=O)N[C@@H](CCCNC(=N)N)C(=O)N[C@@H](CCC(N)=O)C(=O)N[C@@H](CCCNC(=N)N)C(=O)N[C@@H](CCCCN)C(=O)N[C@H](C(=O)NCC(=O)NCC(=O)N[C@@H](CCCNC(=N)N)C(=O)NCC(=O)N[C@@H](CCCNC(=N)N)C(=O)N[C@H](C(=O)N[C@H](C(=O)N[C@@H](CO)C(=O)N1CCC[C@H]1C(=O)N[C@@H](Cc1ccc(O)cc1)C(=O)N[C@@H](CCCNC(=N)N)C(=O)N[C@H](C(=O)N1CCC[C@H]1C(=O)N[C@H](C(=O)N[C@@H](CC(C)C)C(=O)N[C@@H](CCCNC(=N)N)C(=O)N[C@@H](CCCNC(=N)N)C(=O)N[C@@H](Cc1c[nH]cn1)C(=O)N[C@@H](CCCNC(=N)N)C(=O)N[C@@H](Cc1ccc(O)cc1)C(=O)N[C@@H](CO)C(=O)N[C@H](C(=O)N[C@@H](Cc1ccccc1)C(=O)N[C@@H](CCCNC(=N)N)C(=O)O)[C@@H](C)CC)C(C)C)[C@@H](C)O)[C@@H](C)CC)[C@@H](C)CC)[C@@H](C)CC; assay = hemolysis; quantity = HC50; result = 351 µmol/L
Compound = CC[C@H](C)[C@H](NC(=O)[C@H](CCCCN)NC(=O)[C@H](CCCCN)NC(=O)[C@H](Cc1ccccc1)NC(=O)[C@@H](NC(=O)[C@@H](NC(=O)[C@H](CCCNC(=N)N)NC(=O)[C@H](Cc1ccccc1)NC(=O)[C@@H](NC(=O)[C@H](CCCCN)NC(=O)[C@H](CCCCN)NC(=O)[C@@H](N)CCSC)[C@@H](C)CC)C(C)C)[C@@H](C)CC)C(=O)N[C@@H](CC(C)C)C(=O)N[C@@H](CCCCN)C(=O)N[C@@H](CCCNC(=N)N)C(=O)N[C@@H](CC(C)C)C(=O)N[C@H](C(=O)N[C@H](C(=O)O)C(C)C)[C@@H](C)CC; conditions = 8 µg/mL, 1 h, 37 °C; how to read = baseline: Triton X-100; quantity = haemolysis; result = 7.65%
Compound = CC(C)C[C@H](NC(=O)CNC(=O)CNC(=O)CNC(=O)[C@H](CC(N)=O)NC(=O)[C@H](Cc1ccccc1)NC(=O)[C@@H]1CCCN1C(=O)[C@H](CC(N)=O)NC(=O)[C@H](Cc1c[nH]cn1)NC(=O)[C@H](CO)NC(=O)[C@H](CCCNC(=N)N)NC(=O)[C@H](CC(=O)O)NC(=O)[C@H](CO)NC(=O)[C@H](CC(C)C)NC(=O)[C@@H](NC(=O)[C@@H](N)Cc1ccc(O)cc1)[C@@H](C)O)C(=O)N[C@@H](CCCCN)C(=O)N[C@@H](CCCCN)C(=O)N[C@@H](CC(C)C)C(=O)N[C@@H](CC(C)C)C(=O)N[C@@H](CC(C)C)C(=O)N[C@@H](CC(C)C)C(=O)N[C@@H](CC(C)C)C(=O)N[C@@H](CCCCN)C(=O)N[C@@H](CCCCN)C(=O)N[C@@H](CC(C)C)C(=O)NCC(=O)O; conditions = 1 h, 37 °C, 10% hemolysis; quantity = lowest hemolytic concentration; result = > 256 µg/mL
Compound = CC(=O)N[C@@H](CCCCN)C(=O)N[C@@H](CCCCN)C(=O)N[C@@H](CC(C)C)C(=O)N[C@@H](CC(C)C)C(=O)N[C@@H](CCCCN)C(=O)N[C@@H](CC(C)C)C(=O)N[C@@H](CC(C)C)C(=O)N[C@@H](CCCCN)C(=O)N[C@@H](CCCCN)C(=O)N1CCC[C@H]1C(=O)N[C@@H](CC(C)C)C(=O)N[C@@H](CCCCN)C(=O)N[C@@H](CC(C)C)C(=O)N[C@@H](CC(C)C)C(=O)N[C@@H](CCCCN)C(N)=O; assay = haemolysis; conditions = 6 h, 37 °C, 5% haematocrit in PBS; quantity = MHC10; result = > 160 µM

Some of these lines once more:
Compound = CC[C@H](C)[C@H](NC(=O)[C@H](CC(C)C)NC(=O)[C@@H](NC(=O)[C@H](CCCCN)NC(=O)[C@H](CCCNC(=N)N)NC(=O)[C@H](CCCCN)NC(=O)[C@H](CC(C)C)NC(=O)[C@H](Cc1ccc(O)cc1)NC(=O)[C@@H](NC(=O)[C@@H](NC(=O)[C@H](Cc1ccccc1)NC(=O)CN)C(C)C)C(C)C)[C@@H](C)O)C(=O)N[C@@H](CCCNC(=N)N)C(=O)N[C@@H](CC(C)C)C(=O)N[C@@H](CC(C)C)C(=O)N[C@@H](Cc1ccccc1)C(=O)N[C@H](C(=O)N[C@@H](CC(N)=O)C(=O)N[C@@H](CCCCN)C(=O)N[C@@H](CCCCN)C(=O)N[C@H](C(=O)N[C@H](C(=O)N[C@H](C(=O)N[C@@H](CCC(=O)O)C(=O)N[C@@H](CCCCN)C(=O)N[C@@H](CC(C)C)C(=O)N[C@@H](CCCNC(=N)N)C(=O)N[C@@H](CS)C(=O)N[C@H](C(=O)N[C@@H](CCCNC(=N)N)C(=O)N1CCC[C@H]1C(=O)N[C@@H](CO)C(=O)N[C@@H](CCCNC(=N)N)C(=O)N1CCC[C@H]1C(=O)N1CCC[C@H]1C(=O)N[C@@H](CCCNC(=N)N)C(=O)NCC(=O)N[C@@H](Cc1ccccc1)C(=O)O)C(C)C)[C@@H](C)CC)[C@@H](C)O)[C@@H](C)O)[C@@H](C)O; assay = hemolysis; quantity = HC50; result = 72.1 µmol/L
Compound = CC(=O)N[C@@H](CCCCN)C(=O)N[C@@H](CCCCN)C(=O)N[C@@H](CC(C)C)C(=O)N[C@@H](CC(C)C)C(=O)N[C@@H](CCCCN)C(=O)N[C@@H](CC(C)C)C(=O)N[C@@H](CC(C)C)C(=O)N[C@@H](CCCCN)C(=O)N[C@@H](CCCCN)C(=O)N1CCC[C@H]1C(=O)N[C@@H](C)C(=O)N[C@@H](CCCCN)C(=O)N[C@@H](CC(C)C)C(=O)N[C@@H](CC(C)C)C(=O)N[C@@H](CCCCN)C(N)=O; assay = haemolysis; conditions = 6 h, 37 °C, 5% haematocrit in PBS; quantity = MHC10; result = > 160 µM
